Results of several laboratories.
Protocols differ between the studies behind these lines. ± marks the error that the study gave.
Target: PA-I galactophilic lectin (lecA, Pseudomonas aeruginosa, UniProt Q05097)
Residues used in one study (Q05097 1-122): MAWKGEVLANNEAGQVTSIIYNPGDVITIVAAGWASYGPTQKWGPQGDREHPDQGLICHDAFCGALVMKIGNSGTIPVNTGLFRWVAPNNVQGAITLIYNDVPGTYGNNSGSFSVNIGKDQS

SMILES | assay | conditions | quantity | result
OC[C@H]1O[C@@H](Oc2ccc(OCCc3cn([C@H]4[C@H](O)[C@@H](O)[C@H](c5cn([C@H]6[C@H](O)[C@@H](O)[C@H](n7cc(CCOc8ccc(O[C@@H]9O[C@H](CO)[C@H](O)[C@H](O)[C@H]9O)cc8)nn7)O[C@@H]6CO)nn5)O[C@@H]4CO)nn3)cc2)[C@H](O)[C@@H](O)[C@H]1O | binding, ITC | pH 7.5 | Kd | 0.035 µM
OC[C@H]1O[C@@H](OCc2cn([C@H]3[C@H](O)[C@@H](O)[C@H](c4cn([C@H]5[C@H](O)[C@@H](O)[C@H](n6cc([C@@H]7O[C@H](C[n+]8ccccc8)[C@@H](n8cc(CO[C@@H]9O[C@H](CO)[C@H](O)[C@H](O)[C@H]9O)nn8)[C@H](O)[C@H]7O)nn6)O[C@@H]5CO)nn4)O[C@@H]3C[n+]3ccccc3)nn2)[C@H](O)[C@@H](O)[C@H]1O | protein-protein interaction, inhibitor, ELISA |  | IC50 | 0.0052 µM
OC[C@H]1OC(O)[C@H](O)[C@@H](O)[C@H]1O (stereo partly shown) | differential pulse voltammetry |  | Kd | 52 ± 10 µM
[N-]=[N+]=N[C@H]1[C@H](O)[C@@H](O)[C@H](n2cc(CO[C@@H]3O[C@H](CO)[C@H](O)[C@H](O)[C@H]3O)nn2)O[C@@H]1CO | binding, ITC | pH 7.5 | Kd | 6.2 µM
O=C(COc1ccccc1)N[C@@H](Cc1cn(CCNC(=O)c2ccc(S[C@@H]3O[C@H](CO)[C@H](O)[C@H](O)[C@H]3O)cc2)nn1)C(=O)NCCO | ligand displacement, FP |  | IC50 | 49 µM
NC[C@H]1O[C@@H](c2cn([C@H]3[C@H](O)[C@@H](O)[C@H](n4cc([C@@H]5O[C@H](CN)[C@@H](n6cc(CO[C@@H]7O[C@H](CO)[C@H](O)[C@H](O)[C@H]7O)nn6)[C@H](O)[C@H]5O)nn4)O[C@@H]3CO)nn2)[C@H](O)[C@@H](O)[C@@H]1n1cc(CO[C@@H]2O[C@H](CO)[C@H](O)[C@H](O)[C@H]2O)nn1 | binding, ITC |  | Kd | 0.056 µM
[N-]=[N+]=NCCNC(=O)c1ccc(S[C@@H]2O[C@H](CO)[C@H](O)[C@H](O)[C@H]2O)cc1 | binding, SPR |  | Kd | 6.7 µM
C#Cc1ccc(O[C@@H]2O[C@H](CO)[C@H](O)[C@H](O)[C@H]2O)cc1 | binding, ITC |  | Kd | 7.3 µM
O=C(O)[C@H]1O[C@@H](c2cn([C@H]3[C@H](O)[C@@H](O)[C@H](n4cc([C@@H]5O[C@H](C(=O)O)[C@@H](n6cc(CO[C@@H]7O[C@H](CO)[C@H](O)[C@H](O)[C@H]7O)nn6)[C@H](O)[C@H]5O)nn4)O[C@@H]3CO)nn2)[C@H](O)[C@@H](O)[C@@H]1n1cc(CO[C@@H]2O[C@H](CO)[C@H](O)[C@H](O)[C@H]2O)nn1 | protein-protein interaction, inhibitor, ELISA |  | IC50 | 0.031 µM
O=C(COCCCCc1ccccc1)N[C@@H](Cc1cn(CCNC(=O)c2ccc(S[C@@H]3O[C@H](CO)[C@H](O)[C@H](O)[C@H]3O)cc2)nn1)C(=O)NCCO | ligand displacement, FP |  | IC50 | 39.3 µM

A few entries again:
SMILES | assay | conditions | quantity | result
OC[C@H]1O[C@@H](Oc2ccc(OCCc3cn([C@H]4[C@H](O)[C@@H](O)[C@H](c5cn([C@H]6[C@H](O)[C@@H](O)[C@H](n7cc(CCOc8ccc(O[C@@H]9O[C@H](CO)[C@H](O)[C@H](O)[C@H]9O)cc8)nn7)O[C@@H]6CO)nn5)O[C@@H]4CO)nn3)cc2)[C@H](O)[C@@H](O)[C@H]1O | binding, ITC | pH 7.5 | Kd | 0.035 µM
NC[C@H]1O[C@@H](c2cn([C@H]3[C@H](O)[C@@H](O)[C@H](n4cc([C@@H]5O[C@H](CN)[C@@H](n6cc(CO[C@@H]7O[C@H](CO)[C@H](O)[C@H](O)[C@H]7O)nn6)[C@H](O)[C@H]5O)nn4)O[C@@H]3CO)nn2)[C@H](O)[C@@H](O)[C@@H]1n1cc(CO[C@@H]2O[C@H](CO)[C@H](O)[C@H](O)[C@H]2O)nn1 | binding, ITC |  | Kd | 0.056 µM
